Results gathered from unrelated publications.
Compare with care: the assays were run in different laboratories.
Organism: Staphylococcus aureus

SMILES | assay | test system | conditions | MIC
CC[C@H](C)[C@H](NC(=O)[C@@H](NC(=O)CN)C(C)C)C(=O)N[C@@H](Cc1ccccc1)C(=O)N[C@@H](CC(N)=O)C(=O)N[C@@H](C)C(=O)N[C@@H](CC(C)C)C(=O)N[C@@H](CCCCN)C(=O)NCC(=O)N[C@H](C(=O)N[C@@H](C)C(=O)N[C@@H](CCCCN)C(=O)N[C@H](C(=O)N[C@H](C(=O)N[C@@H](C)C(=O)N[C@@H](C)C(=O)N[C@@H](CCC(N)=O)C(=O)N[C@@H](CC(C)C)C(=O)N[C@@H](CC(C)C)C(=O)N[C@@H](CCCCN)C(=O)N[C@@H](CCCCN)C(=O)N[C@@H](C)C(=O)N[C@@H](CCCNC(=N)N)C(=O)N[C@H]1CSSC[C@@H](C(=O)O)NC(=O)[C@H](CO)NC(=O)[C@H](CCCCN)NC(=O)[C@H](CC(=O)O)NC(=O)[C@H](CC(C)C)NC(=O)[C@H](CCCCN)NC1=O)C(C)C)[C@@H](C)O)C(C)C | – | NCTC 10788, PBS | – | 2 µM
N=C(N)NCCC[C@@H]1NC(=O)[C@H](CCCNC(=N)N)NC(=O)[C@H](CCCNC(=N)N)NC(=O)[C@H](CCCNC(=N)N)NC(=O)[C@H](Cc2c[nH]c3ccccc23)NC(=O)[C@H](CCCNC(=N)N)NC(=O)[C@H](CCCNC(=N)N)NC(=O)[C@@H](N)CCn2cc(nn2)C[C@@H](C(N)=O)NC1=O | – | – | 24 h, 37 °C, in 0.01% acetic acid | 62.5 µg/mL
COc1cc(/C=N/N2C(=O)c3ccccc3NC2c2cc(OC)c(O)c(OC)c2)cc(OC)c1O (stereo not shown) | microbial growth, broth dilution | – | 24 h, drug-resistant strain, clinical isolate | > 256 µg/mL
CC(C)C[C@@H]1NC(=O)[C@H](C)NC(=O)[C@H](NC(=O)[C@H](CO)NC(=O)[C@@H](CCCCN)NC(=O)[C@@H](CC(C)C)NC(=O)[C@H](C)N)[C@H](C(N)=O)OC(=O)[C@H](CC(C)C)NC1=O | – | MRSA ATCC 700698 | TFA salt | 16 µg/mL
CC[C@H](C)[C@@H]1NC(=O)CNC(=O)[C@H](CCCCN)NC(=O)[C@H](C)NC(=O)[C@H](CCC(=O)O)NC(=O)[C@H](Cc2ccccc2)NC(=O)[C@H](CO)NC(=O)[C@H](CC(C)C)NC(=O)[C@H](C(C)C)NC(=O)[C@H](CC(=O)O)NC(=O)[C@@H](NC(=O)[C@@H](NC(=O)[C@@H](N)C(C)C)[C@@H](C)O)CSSC[C@@H]2NC(=O)[C@H](CO)NC(=O)CNC(=O)CNC(=O)[C@H](CCCCN)NC(=O)[C@H](CCCCN)NC(=O)[C@H](CCCNC(=N)N)NC(=O)[C@H](CC(C)C)NC(=O)[C@H](C)NC(=O)[C@H]([C@@H](C)CC)NC(=O)[C@H](CSSC[C@@H](C(=O)N[C@@H](CCCNC(=N)N)C(=O)N[C@@H](CC(N)=O)C(=O)O)NC(=O)[C@H](C(C)C)NC(=O)[C@H](C)NC(=O)[C@H](C(C)C)NC(=O)CNC(=O)[C@H](CC(N)=O)NC(=O)[C@H](CCC(N)=O)NC2=O)NC(=O)[C@H](Cc2c[nH]cn2)NC(=O)[C@H](CC(C)C)NC(=O)[C@H](C)NC(=O)[C@H](C)NC(=O)[C@H](C)NC(=O)[C@H](CO)NC(=O)[C@H](Cc2c[nH]cn2)NC(=O)[C@H](CC(N)=O)NC(=O)[C@H](C(C)C)NC(=O)[C@H](C)NC1=O | broth microdilution | KCTC 1621 | 16 h, 37 °C | > 100 µM
COc1ccc2ccc3c(c2c1)C=[N+]1C2CCCCC2[N+]2=Cc4ccc(C)cc4[O][Au-]21[O]3.F[P-](F)(F)(F)(F)F (stereo not shown) | bacterial growth, broth microdilution | vancomycin-intermediate | 24 h | 20 µM
CC(=O)N[C@@H](CCCNC(=N)N)C(=O)N[C@@H](Cc1c[nH]c2ccccc12)C(=O)N[C@@H](CCCNC(=N)N)C(=O)N[C@@H](Cc1c[nH]c2ccccc12)C(=O)N[C@@H](Cc1c[nH]c2ccccc12)C(=O)N[C@@H](CCCCN)C(=O)N[C@@H](Cc1ccccc1)C(=O)N[C@H](C(N)=O)C(C)C | – | MSSA ATCC 29213, MEM medium | overnight, 37 °C | 1.4 µM
CCCCCCCCCCCCCCCC(=O)N[C@@H](CCCCN)C(=O)N1CCC[C@H]1C(=O)N[C@H](C(N)=O)C(C)C | broth microdilution | MRSA ATCC 33591 | Mueller-Hinton broth | 11.4 µM
C=CCCC[C@@H]1NC(=O)[C@H](CC(C)C)NC(=O)[C@H](C)NC(=O)[C@H](NC(=O)[C@H](CO)NC(=O)[C@@H](CCCCN)NC(=O)[C@@H](CCCC=C)NC(=O)[C@@H](N)Cc2ccccc2)[C@H](C)OC1=O | – | MSSA ATCC 29213 | TFA salt | 4 µg/mL
CC(C)C[C@H](NC(=O)[C@H](CC(N)=O)NC(=O)[C@H](CCCNC(=N)N)NC(=O)[C@@H](CC(C)C)NC(=O)[C@H](Cc1ccc(-c2ccccc2)cc1)NC(=O)[C@H](CC(=O)O)NC(=O)[C@H](CCCCN)NC(=O)[C@@H](CC(C)C)NC(=O)[C@H](CCCNC(=N)N)NC(=O)[C@H](CCC(N)=O)NC(=O)[C@@H](NC(=O)[C@@H](CC(C)C)NC(=O)[C@H](CCCNC(=N)N)NC(=O)[C@H](CCCCN)NC(=O)[C@H](Cc1ccc(-c2ccccc2)cc1)NC(=O)CN)C(C)C)C(=O)N[C@H](C(N)=O)C(C)C | broth microdilution | USA300, Mueller-Hinton broth | overnight, 37 °C | 4 µM

Excerpt of the above:
SMILES | assay | test system | conditions | MIC
COc1cc(/C=N/N2C(=O)c3ccccc3NC2c2cc(OC)c(O)c(OC)c2)cc(OC)c1O (stereo not shown) | microbial growth, broth dilution | – | 24 h, drug-resistant strain, clinical isolate | > 256 µg/mL
